Experimental data from different studies.
Each line is one published result; not all experiments were run side by side. Numbers after ± are the reported error. Converted amounts (≈) assume the structure as drawn.
TDP1: Tyrosyl-DNA phosphodiesterase 1 (TDP1, Homo sapiens, UniProt Q9NUW8)
Chain of UniProt Q9NUW8 (whole entry, looked up): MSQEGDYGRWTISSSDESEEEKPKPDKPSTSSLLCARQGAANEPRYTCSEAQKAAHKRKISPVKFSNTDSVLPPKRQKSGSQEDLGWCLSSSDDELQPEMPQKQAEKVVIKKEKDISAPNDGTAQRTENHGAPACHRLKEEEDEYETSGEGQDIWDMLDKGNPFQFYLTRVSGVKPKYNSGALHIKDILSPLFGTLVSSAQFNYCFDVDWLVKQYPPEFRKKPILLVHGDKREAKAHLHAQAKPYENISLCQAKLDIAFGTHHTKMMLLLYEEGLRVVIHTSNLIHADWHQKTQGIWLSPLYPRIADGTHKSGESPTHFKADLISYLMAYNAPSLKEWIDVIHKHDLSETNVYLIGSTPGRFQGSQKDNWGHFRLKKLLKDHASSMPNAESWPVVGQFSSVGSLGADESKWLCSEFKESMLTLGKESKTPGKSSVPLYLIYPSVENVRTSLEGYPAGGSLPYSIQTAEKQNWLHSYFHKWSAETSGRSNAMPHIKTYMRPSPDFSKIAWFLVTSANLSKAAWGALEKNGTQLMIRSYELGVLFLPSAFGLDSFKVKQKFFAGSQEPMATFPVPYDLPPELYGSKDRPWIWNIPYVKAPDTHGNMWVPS

| SMILES | target or system | assay | system | setting | scale | endpoint | result |
| --- | --- | --- | --- | --- | --- | --- | --- |
| C=CC(=O)Nc1cccc(Cn2ncc3cnc(Nc4cnn(CCOC)c4)nc32)c1 | human ABL1(F317I)-phosphorylated | KINOMEscan |  | 100 nM | reference: control | binding | 69% |
| CN1CCCNC(=O)c2cccc(c2)C(=O)NCCCN(C)CCCNc2cccc3c2C(=O)c2cccc(c2C3=O)NCCC1 | SAS | RNA-Seq, measured: EPHB2 mRNA |  | 1 µM, 6 h | reference: untreated cells | log2 fold change | -0.702 |
| Nc1ncc(-c2cc(-c3cnn(CC(F)(F)F)c3)ncc2F)nc1C(=O)NC1CNCC(F)C1 (stereo not shown) | RIOK3 | KINOMEscan |  | 1 µM | reference: DMSO control | remaining binding | 86% |
| Cn1ncc2cc(-c3cncc(Cl)c3N3CCC4(CCNC4=O)CC3)ccc21 | LS174T | gene expression, microarray, measured: CIITA mRNA |  | concentration not given, 4 h | reference: untreated cells | log2 fold change | -1.33 |
| CCN(CC)CC(=O)Nc1cccc(-n2cc(-c3ccc4ccc(-c5cn(-c6cccc(NC(=O)CN(CC)CC)c6)nn5)cc4c3)nn2)c1 | RCC4 | PCR array, measured: ENG |  | 5 x IC50, 6 h, normoxia | reference: untreated | fold regulation | -1.01 |
| C/C=C(/C)C(=O)O[C@@H]1C=C(C)CC[C@]2(O)[C@@H](C(C)C)CC(=O)[C@]12C | Helicobacter pylori | microbial growth, broth dilution |  | 7.81 µg/mL |  | inhibition | 0% |
| CNS(=O)(=O)Nc1nccc(Cc2c(C)c3ccc(Oc4ncccc4F)cc3oc2=O)c1F | 143B | cell viability |  | 7 days |  | IC50 | 0.0717 µM |
| COCCOCCOCCNC(=O)Cc1cc(CC(=O)N[C@H]2C[C@H]3C(=O)Nc4cc(OCCOCCOCCOC)cc(n4)C(=O)N4CCC[C@H]4C(=O)Nc4cc(OCCOCCOCCOC)cc(n4)C(=O)N4CCC[C@H]4C(=O)Nc4cc(OCCOCCOCCOC)cc(n4)C(=O)N3C2)cc(CC(=O)N[C@H]2C[C@H]3C(=O)Nc4cc(OCCOCCOCCOC)cc(n4)C(=O)N4CCC[C@H]4C(=O)Nc4cc(OCCOCCOCCOC)cc(n4)C(=O)N4CCC[C@H]4C(=O)Nc4cc(OCCOCCOCCOC)cc(n4)C(=O)N3C2)c1 |  | anion binding, ITC | water | 298 K, stoichiometry fixed at 1.00, added: sodium chloride |  | TΔS | 22.4 ± 3 kJ mol^–1 |
| Cc1ncsc1-c1ccc(C(C)NC(=O)C2CC(O)CN2C(=O)C(NC(=O)CCCCCCCCCCN2CCCC(Nc3ncc(Cl)c(Nc4ccccc4S(=O)(=O)C(C)C)n3)C2)C(C)(C)C)cc1 (stereo not shown) | 22Rv1 | RNA-seq, measured: LRRC27 mRNA |  | concentration not given | reference: DMSO | log2 fold change | -1.57 |
| CO[C@@H]1[C@@H](OC(N)=O)[C@@H](O)[C@H](Oc2ccc3c(O)c(NC(=O)c4ccc(O)c(CC=C(C)C)c4)c(=O)oc3c2C)OC1(C)C | DLD-1 parental |  |  | 300 µM, replicate 1 |  | colony count | 0.1 |
| CO[C@@H]1OC[C@@H](O)[C@H](O)[C@H]1O | Helicobacter pylori | microbial growth, broth dilution |  | 0.98 µg/mL |  | inhibition | 0% |
| C=C(NC(=O)c1csc(-c2nc3c(cc2O)-c2nc(cs2)C(=O)NC(C(C)O)C(=O)NC(=C(C)OC)c2nc(cs2)C(=O)NC2c4nc(cs4)C(=O)NC(COC(=O)c4c5c6c(cccc6n4O)COC(=O)C(OC4CC(C)(O)C(N(C)C)C(C)O4)C2OC5)c2nc-3cs2)n1)C(N)=O (stereo not shown) | Staphylococcus aureus |  | MRSA, 10 isolates | pH 7.0 |  | MIC50 | 0.0156 mg/L (≈ 0.0109 µM) |
| COc1cc(O)ccc1CCC(c1ccc(O)cc1)c1cc2c(c(C)c1O)OC(c1ccc(O)cc1)CC2 (mixture of isomers) |  |  | human blood | 10 µM, added: A23187 |  | 15-HETE level | 397 ± 192 pg/mL |
| CC=C(C)C(=O)OC1CC2C(C=C(C)C3C(OC(C)=O)CC(=O)C13C)OC(=O)C2C (stereo not shown) | Helicobacter pylori | microbial growth, broth dilution |  | 31.25 µg/mL |  | inhibition | 0% |
| COC1CN([C@H]2CC[C@H]([C@@]3(C)Oc4c(Cl)cc(C(=O)NCc5c(SC)cc(C)[nH]c5=O)c(C)c4O3)CC2)C1 |  | RNA-seq, measured: RTN1 | human, whole blood | dose not given, 24 h | reference: pretreatment baseline | log2 fold change | 1.8 |
| COc1cc([N+](=O)[O-])ccc1C=NOCc1ccc(-c2nc3cc(-c4ccccc4)ccn3c2Nc2ccc(C(=O)O)cc2)cc1 | TDP1 | enzyme activity, inhibitor |  | 100 µM, unpurified compound |  | inhibition | 41.5% |
| C=CC(=O)N1[C@H](c2ccc3c(c2)OCO3)c2[nH]c3ccccc3c2C[C@@H]1C(=O)N1CCN(C)CC1 | human cyclin E1 N112C-3xFLAG:CDK2 | co-IP with TMT proteomics, measured: cyclin E1 |  | concentration not given | reference: wild type DMSO | relative enrichment | 100% |
| C=CCOc1ccc(C=NOCc2ccc3nc(-c4ccccc4)c(Nc4ccc(C(=O)O)cc4)n3c2)cc1I (mixture of isomers) | TDP1 | enzyme activity, inhibitor |  | 100 µM, unpurified compound |  | inhibition | 4.4% |
| c1ccc(-c2n[nH]cc2-c2ccnc3ccccc23)nc1 | MCK1 (Candida albicans) | kinase binding, MIB/MS competition | Candida albicans lysate | 1 µM | reference: DMSO | log2 fold change | 0.09 |
